Measurements from different studies.
Every numbered part comes from another study and shows a few of its results, in no order. Changes are numbered by the printed parent chain.

Sample 1
Target: Centromere-binding protein 1, full length, His-tagged (CBF1, Saccharomyces cerevisiae, UniProt P17106, residues 1-351)
UniProt P17106, sequence (whole entry, looked up): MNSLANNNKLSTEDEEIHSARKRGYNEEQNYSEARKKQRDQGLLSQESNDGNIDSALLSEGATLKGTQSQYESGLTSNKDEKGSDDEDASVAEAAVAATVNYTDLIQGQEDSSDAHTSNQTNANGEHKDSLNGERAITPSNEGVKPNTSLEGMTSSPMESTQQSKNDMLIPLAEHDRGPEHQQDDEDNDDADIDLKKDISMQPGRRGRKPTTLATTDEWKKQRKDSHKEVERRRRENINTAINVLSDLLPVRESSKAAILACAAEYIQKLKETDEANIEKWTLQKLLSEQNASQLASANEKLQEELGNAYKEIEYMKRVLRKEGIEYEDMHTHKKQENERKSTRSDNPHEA
Method: competition protein-binding microarray
Molecule type: double-stranded DNA, one strand shown
Matrix: in vitro
Concentration: 2 µM
Setting: whole 60-bp probe, lowest competitor level
Added: Pho4 competitor, 0.05 µM
Direction: higher = stronger binding
| Strand | fluorescence intensity [a.u.] |
| --- | --- |
| CCAGGCACCGAGGTCCATGTGAAAGGAGGCTTTGCGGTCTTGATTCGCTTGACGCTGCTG | 60.5 |
| TTCGTCTTCTTCGTCACCGTGACGGGAGCTCTTCGGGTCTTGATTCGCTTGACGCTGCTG | 129 |
| CGTTCGTAATGCCAACACGATGCAGACCTGAGCCTAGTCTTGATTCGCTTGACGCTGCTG | 59.2 |
| CCGGCCCGGAATATACGCGTGGTCGCGCTCTTTCGGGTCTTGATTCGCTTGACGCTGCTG | 75.3 |
| GACATCTGGCGTAGTCACCTGTCAGAGAAATCGCGGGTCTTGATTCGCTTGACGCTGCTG | 509 |
| CATACCCAACCTTGTGGTGTGGGTGAAGATATTTGTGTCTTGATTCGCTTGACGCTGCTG | 77.2 |
| CATACCCAACCTTGAACGGTGGGTGAAGATATTTGTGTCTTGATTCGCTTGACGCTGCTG | 65.7 |
| ACTTTCAACGTCCATCACGTGAACGACCGGCATTCTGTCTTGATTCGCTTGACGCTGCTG | 2840 |
| CTTCTGTAAATTTGTTGTGTGGGTGGACGCGCCCCGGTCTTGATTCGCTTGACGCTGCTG | 103 |
| CTTCTGTAAATTTTTCACGTGCTTTGACGCGCCCCGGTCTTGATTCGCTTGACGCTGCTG | 1040 |
| CTAACGAAGGTTTGTCACGATACTTACAAGCCAAGTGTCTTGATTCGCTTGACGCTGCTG | 220 |
| CACTAGCTCGGTTTAGTTGTGACGGGTCTGCTGTACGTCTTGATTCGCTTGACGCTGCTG | 60.3 |
| CTAACGAAGGTTTGAGACGTGGGTGACAAGCCAAGTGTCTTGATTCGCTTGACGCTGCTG | 65.2 |
| CTTCTCTTCTTCACCGGCGTGATGGGCTGCGTAACAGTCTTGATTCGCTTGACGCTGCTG | 90.4 |
| TACCCTCTCAGTCCGCACGTGCGGAGGGATCAGCCTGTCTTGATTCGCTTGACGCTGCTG | 816 |

Sample 2
Target: Histone acetyltransferase KAT6A, both winged helices, GST fusion (KAT6A, Homo sapiens, UniProt Q92794, residues 1-181)
Method: protein binding microarray
Molecule type: double-stranded DNA, one strand shown
Matrix: in vitro
Concentration: not given
Setting: 8-mer, flanks averaged, mean of 2 arrays, mostly near background
Relative to: not given
Direction: higher = stronger binding
Target sequence (chain): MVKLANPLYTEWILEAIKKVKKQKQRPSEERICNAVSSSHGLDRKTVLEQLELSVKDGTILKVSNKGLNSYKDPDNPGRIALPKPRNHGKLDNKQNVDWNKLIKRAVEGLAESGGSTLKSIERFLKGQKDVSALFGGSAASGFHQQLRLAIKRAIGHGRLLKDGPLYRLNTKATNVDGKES
| Strand | E-score |
| --- | --- |
| GCTGCGCC | 0.0674 |
| GGAGCGTA | 0.107 |
| CGGACTTA | 0.0856 |
| CGCCTTCC | 0.143 |
| CACCTCCG | 0.023 |
| GGGGGCAA | -0.145 |
| AATTTCTA | -0.0837 |
| AGAGTATA | -0.111 |
| CTAACTCA | -0.158 |
| ATCCTCCA | -0.207 |
| AGGATTCA | -0.153 |
| CGCTTTTC | 0.207 |
| CCCAGTGC | -0.188 |
| GATCGGAC | 0.134 |
| ACTAACAC | 0.0466 |
| CTTAGACC | -0.0504 |
| CAAGTTTA | -0.108 |

Sample 3
Target: ABI1, truncated, D143A, DHFR fusion (Arabidopsis thaliana)
Method: DHFR PCA, deep sequencing
Matrix: yeast
Setting: methotrexate growth selection, single substitutions
Added: (+)-ABA 200 µM
Relative to: wild-type fitted maximum
Direction: higher = stronger binding
Starting sequence: PYL1, truncated, DHFR fusion (Arabidopsis thaliana); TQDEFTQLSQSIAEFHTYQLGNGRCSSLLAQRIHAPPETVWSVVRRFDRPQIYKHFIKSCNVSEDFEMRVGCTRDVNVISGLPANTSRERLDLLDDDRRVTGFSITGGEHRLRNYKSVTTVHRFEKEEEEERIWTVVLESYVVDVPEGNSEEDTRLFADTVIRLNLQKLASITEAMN; partner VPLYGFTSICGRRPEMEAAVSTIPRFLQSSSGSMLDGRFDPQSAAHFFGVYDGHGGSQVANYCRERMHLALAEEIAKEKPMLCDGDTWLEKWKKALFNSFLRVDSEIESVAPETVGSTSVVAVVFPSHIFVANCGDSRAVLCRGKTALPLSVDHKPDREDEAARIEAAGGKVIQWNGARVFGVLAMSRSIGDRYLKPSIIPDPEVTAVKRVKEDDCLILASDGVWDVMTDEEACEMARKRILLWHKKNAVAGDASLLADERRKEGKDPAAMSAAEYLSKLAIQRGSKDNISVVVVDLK
| Change | relative binding score [%] |
| --- | --- |
| A84L | 10.4 |
| F56P | 7.94 |
| P50V | 55 |
| T119N | 20.9 |
| R45T | 39.5 |
| Y53I | 43.5 |
| T86N | 99.6 |
| D3C | 90.4 |
| T154C | 91.4 |
| S27I | 1.58 |
| V136Q | 61.8 |

Sample 4
Target: RING finger protein unkempt homolog, zinc fingers 1-6, GST-SBP tag (UNK, Homo sapiens, UniProt Q9C0B0, residues 30-357)
Method: RNA Bind-n-Seq
Molecule type: RNA
Matrix: in vitro
Concentration: not given
Setting: RNA with constant flanks, human and mouse sites, ends assumed
Relative to: input RNA pool
Direction: higher = stronger binding
Residues (chain): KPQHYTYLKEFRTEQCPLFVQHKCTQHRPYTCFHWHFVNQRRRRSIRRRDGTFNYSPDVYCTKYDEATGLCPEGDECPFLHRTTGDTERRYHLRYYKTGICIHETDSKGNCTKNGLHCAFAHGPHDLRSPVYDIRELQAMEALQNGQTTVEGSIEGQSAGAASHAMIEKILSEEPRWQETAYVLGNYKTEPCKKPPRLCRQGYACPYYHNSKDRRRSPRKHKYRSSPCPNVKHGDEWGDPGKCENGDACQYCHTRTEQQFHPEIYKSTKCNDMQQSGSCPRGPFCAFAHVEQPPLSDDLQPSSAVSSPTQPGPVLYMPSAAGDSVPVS
| Strand | bound/input enrichment [ratio] |
| --- | --- |
| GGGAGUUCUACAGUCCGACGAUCUCAGCUUCGGUGGACUGCUCCUCUGAUUUCUAAGCCUCCAAUUGGGCCUCUUUGAUACAAAUAGAAGUCAGGUAUGUGACUUAAAUACUAAAAAUAUUAAUAUUCCCGUUUGAAUUCGAUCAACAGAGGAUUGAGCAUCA | 1.22 |
| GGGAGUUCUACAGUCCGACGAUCCUUAAUUUUCUUUCUUGUUCGGUACCUACAUUGGAACCAUCAAAAACAAUUAUUUCAGUAAACCGUAGCCAUGAGGGAAAUCGUGCACAUCCAGGCCGGACAGUGUGGCAACCAGAUCGGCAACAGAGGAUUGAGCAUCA | 0.24 |
| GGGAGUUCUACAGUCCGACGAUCAGCCCAAAUCAUGCGGUGGUGCACGGCAACCUGGCUUGUGUGUACUACGAGCAAGGCCUAAUAGACCUGGCCAUUGAUACCUACAGGAGAGCUAUCGAACUGCAACCCCAUUUCCCCGAUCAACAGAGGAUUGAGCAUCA | 0.0677 |
| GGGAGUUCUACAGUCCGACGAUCGGACUAGAACACGUUACUGUUGAUGACUUGGUGGCUGAAAUCACUCCAAAAGGCAGAGCCCUGGUACCUGACAGUGUAAAGAAGGAGCUCCUACAAAGAAUAAGAACAUUCCUUGCUCAGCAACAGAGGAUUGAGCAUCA | 0.143 |
| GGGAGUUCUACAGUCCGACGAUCAUUAAAAAUGCCUGUUUACAAACGUCUUCCCUUGCUGUCCGUGUGAAUUCAUUAGUGUGCUUAGGGAAGAUCCUGGAGUACCUGGAUAAGUGGUUUGUGCUUGAUGAUAUCCUACCCUUCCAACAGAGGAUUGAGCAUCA | 0.113 |
| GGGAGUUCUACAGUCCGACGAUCUGAUUGUGACGUCACAUUCUUCAGCAUUGUCAUGAGAUUAAUAUACUUAAAUCUACUACUCAUUGGAUUGCCGGGGAUGUCCCUUUAAAAGGACUGCUGCCUUCAGCUGAAAAUGUAAUGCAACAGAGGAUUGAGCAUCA | 0.135 |
| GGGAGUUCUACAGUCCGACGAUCUGCUCGGGCCAUCCACAACAUCUUUCGUAUGACAGAAUCACAUUUAUUAGUCACUUGUGACUGCUUGAAGUUAAUUGAUCCGCAGACCCAAGUUACAAGGCUCACAUUUCCAUUGCCGUGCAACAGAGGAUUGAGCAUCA | 0.14 |

Sample 5
Target: Fragile X messenger ribonucleoprotein 1, C-terminal low-complexity region (Fmr1, Mus musculus, UniProt P35922)
Method: RNA Bind-n-Seq
Molecule type: RNA
Matrix: in vitro
Concentration: 200 nM
Setting: whole 134-nt RNA, ends assumed
Added: 150 mM KCl
Relative to: input library
Direction: higher = stronger binding
| Strand | log2 enrichment |
| --- | --- |
| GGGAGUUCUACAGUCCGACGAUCCUCAAGUCCUGUGCUACACAUCGUAUGUACCGAAUCGGAGGUUUGGUUUUUGGAAAGUAUUAUGUUACGCCGUUCGGAUCUGCACUUCCAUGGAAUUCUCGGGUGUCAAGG | -0.288 |
| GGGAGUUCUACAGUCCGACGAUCUCAAGUCCUGUGCUACACAUCGUAUGUACCGAAUCGGGUGGGUUUUUGGGAGGGAAAGUAUUAUGUUACGCCGUUCGGAUCUGCACUUCCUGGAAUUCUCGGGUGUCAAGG | 1.21 |
| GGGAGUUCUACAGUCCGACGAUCUCCUCAAGUCCUGUGCUACACAUCGUAUGUACCGAAUCGGUGGAGGAAAGGAAAGUAUUAUGUUACGCCGUUCGGAUCUGCACUUCCAGCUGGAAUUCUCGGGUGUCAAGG | -0.392 |
| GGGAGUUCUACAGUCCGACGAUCUCCUGUGCUACACAUCGUAUGUACCGAAUCGGGCCCCCCGGGGCCCCCCGGGCCCCCCGGAAAGUAUUAUGUUACGCCGUUCGGAUCUGCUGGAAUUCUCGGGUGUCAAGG | -0.31 |
| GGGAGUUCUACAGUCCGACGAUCUAACUUUAGAGGAGGAUCUGAUGGAUAUGGCAGUGGACGUGGAUUUGGGGAUGGCUAUAAUGGAUAUGGAGGAGGACCUGGAGGUGGCAAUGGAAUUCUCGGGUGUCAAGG | 0.168 |
| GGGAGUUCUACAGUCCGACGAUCAGUCCUGUGCUACACAUCGUAUGUACCGAAUCAAACCCAAAUUUUUAAAUUUUUAAAAAAGUAUUAUGUUACGCCGUUCGGAUCUGCACUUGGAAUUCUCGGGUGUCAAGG | 0.13 |
| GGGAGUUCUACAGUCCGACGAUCGCAGGAACUAAAAACAAAUGGAAAUGCUUCGGAUAGUGGCAGGGGUGGGGGUUGCUAAGGAAAGGGUGGGAUGGGAGUGGGUAAAGAGUUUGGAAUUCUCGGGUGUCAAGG | 0.559 |
| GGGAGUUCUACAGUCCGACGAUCGUCCUGUGCUACACAUCGUAUGUACCGAAUCGGGGAAAAAGGGGUGGGGUUUUUGGGGAAAGUAUUAUGUUACGCCGUUCGGAUCUGCACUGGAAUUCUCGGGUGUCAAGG | 0.518 |
| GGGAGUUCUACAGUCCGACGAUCGCAGGAAGUAAAAACAAAUGGAAAUGCUUCGGAUAGUGGCAGGGGUGGGGGUUGCUAAGGAAAGGGUGGCAUGGGAGUGGGUAAAGAGUUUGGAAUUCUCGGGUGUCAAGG | 0.293 |
| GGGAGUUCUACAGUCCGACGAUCAAGUCCUGUGCUACACAUCGUAUGUACCGAAUCGGGUGGGAAAAAGGGUUUUUGGGAAAGUAUUAUGUUACGCCGUUCGGAUCUGCACUUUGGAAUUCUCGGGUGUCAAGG | 0.854 |
| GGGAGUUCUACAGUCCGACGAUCGUCCUGUGCUACACAUCGUAUGUACCGAAUCGGGCCCCCGGGCCCCCGGGGCCCCCGGAAAGUAUUAUGUUACGCCGUUCGGAUCUGCACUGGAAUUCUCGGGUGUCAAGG | -1.02 |
| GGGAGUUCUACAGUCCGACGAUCCCUGUGCUACACAUCGUAUGUACCGAAUCGGGGAAAAAGGGGUUUGGGGAAAAAAAGGGGAAAGUAUUAUGUUACGCCGUUCGGAUCUGCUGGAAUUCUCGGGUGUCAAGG | 0.0514 |

Repeated from above (sample 3):
| Change | relative binding score [%] |
| --- | --- |
| F56P | 7.94 |
| P50V | 55 |
| T119N | 20.9 |
| R45T | 39.5 |
| Y53I | 43.5 |
| T86N | 99.6 |
| D3C | 90.4 |
| T154C | 91.4 |
| S27I | 1.58 |
| V136Q | 61.8 |
